Published values collected from several papers.
A part holds a random share of what one study measured. Substitutions count along the parent as printed.

Set 1
Target: CCND3, cyclin fold, Cln2 fusion (human)
Technique: yeast growth competition, sequencing
Sample: yeast
Notes: weak parent motif
Baseline: not given
Reading: higher = stronger binding
Quantity: normalised enrichment score
Parent: RBL2 docking peptide (human); STTRRRLFVENDS; partner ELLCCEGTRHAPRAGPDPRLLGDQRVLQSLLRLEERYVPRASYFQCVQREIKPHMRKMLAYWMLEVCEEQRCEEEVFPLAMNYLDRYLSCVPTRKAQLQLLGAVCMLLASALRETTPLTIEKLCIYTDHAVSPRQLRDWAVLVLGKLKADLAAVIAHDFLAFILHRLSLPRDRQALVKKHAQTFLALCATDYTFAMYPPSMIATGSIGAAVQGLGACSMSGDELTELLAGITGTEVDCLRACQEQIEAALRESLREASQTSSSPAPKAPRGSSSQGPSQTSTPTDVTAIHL
F8W: 0.104
N11Q: 0.108
S1Q: 0.128
T3E: 0.0946
L7G: 0.04
V9E: 0.0532
R4V: 0.0991
N11P: 0.12
N11S: 0.185
T2D: 0.0475
T2V: 0.139
T3G: 0.227
R6G: 0.0682
T2S: 0.0788
V9N: 0.283
D12I: 0.103
S1I: 0.0986
V9S: 0.183
R6Q: 0.18
L7H: 0.111
T2F: 0.0445
R4W: 0.104
T3D: 0.159
V9C: 0.228

Set 2
Target: BATF3, bZIP domain (human)
Technique: DHFR protein complementation
Sample: yeast
Notes: single substitutions, most at no-binding floor
Baseline: wild-type JUN-FOS pair
Reading: higher = stronger binding
Quantity: binding fitness
Parent: JUN, bZIP domain (human); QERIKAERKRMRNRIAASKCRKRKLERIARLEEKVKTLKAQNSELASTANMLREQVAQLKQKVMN; partner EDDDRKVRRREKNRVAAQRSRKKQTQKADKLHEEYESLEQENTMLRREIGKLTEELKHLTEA
V56S: -0.141 natural log
E54W: 0.0202 natural log
A46N: 0.349 natural log
T48V: 0.172 natural log
A29C: 0.11 natural log
K36P: -0.172 natural log
L31N: 0.123 natural log
L38M: 0.216 natural log
T48L: 0.18 natural log
A29F: 0.147 natural log
A46P: -1.09 natural log
R30L: 0.235 natural log
V35P: -1.05 natural log
T37A: 0.264 natural log
L31Y: 0.177 natural log
V35I: 0.223 natural log
E44H: 0.175 natural log
R53P: -1.11 natural log
T37I: 0.212 natural log
Q41E: 0.207 natural log
Q41G: 0.0214 natural log
T37R: 0.246 natural log
A29T: 0.171 natural log

Set 3
Target: Histone acetyltransferase KAT6A, winged helix 2, GST fusion (KAT6A, Homo sapiens, UniProt Q92794, residues 85-181)
Technique: protein binding microarray
Molecule type: double-stranded DNA, one strand shown
Sample: in vitro
Tested at: not given
Notes: 8-mer, flanks averaged, mean of 2 arrays, mostly near background
Baseline: not given
Reading: higher = stronger binding
Quantity: E-score
Residues (chain): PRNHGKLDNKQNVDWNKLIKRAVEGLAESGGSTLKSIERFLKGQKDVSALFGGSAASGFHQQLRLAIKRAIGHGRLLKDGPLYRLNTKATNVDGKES
AATGAGTC: -0.277
ACTGCACG: -0.0836
ACTCCGTG: 0.147
ATTACGTA: -0.174
ACGTTGGC: -0.179
ATGAAAAA: 0.0377
TCAAAAAA: 0.149
GCGCACCC: 0.322
GTGCATGA: -0.0376
ATAAATGC: -0.00143
ATATATGA: -0.0302
CACCCGGG: 0.153
CTTCTCAA: 0.0243
CGTAAGAG: -0.077
AAAAGGTA: -0.122
AATGCACG: -0.002
TGTATCAA: 0.159

Set 4
Target: ABI1, truncated, D143A, DHFR fusion (Arabidopsis thaliana)
Technique: DHFR PCA, deep sequencing
Sample: yeast
Notes: methotrexate growth selection, single substitutions
Added: (+)-ABA 0.39 µM
Baseline: wild-type fitted maximum
Reading: higher = stronger binding
Quantity: relative binding score
Parent: PYL1, truncated, DHFR fusion (Arabidopsis thaliana); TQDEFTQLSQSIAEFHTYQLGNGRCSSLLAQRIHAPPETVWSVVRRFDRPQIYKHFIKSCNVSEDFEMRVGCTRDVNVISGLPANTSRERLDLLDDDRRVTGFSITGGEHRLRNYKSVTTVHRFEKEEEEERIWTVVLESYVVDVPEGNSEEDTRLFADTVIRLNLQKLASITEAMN; partner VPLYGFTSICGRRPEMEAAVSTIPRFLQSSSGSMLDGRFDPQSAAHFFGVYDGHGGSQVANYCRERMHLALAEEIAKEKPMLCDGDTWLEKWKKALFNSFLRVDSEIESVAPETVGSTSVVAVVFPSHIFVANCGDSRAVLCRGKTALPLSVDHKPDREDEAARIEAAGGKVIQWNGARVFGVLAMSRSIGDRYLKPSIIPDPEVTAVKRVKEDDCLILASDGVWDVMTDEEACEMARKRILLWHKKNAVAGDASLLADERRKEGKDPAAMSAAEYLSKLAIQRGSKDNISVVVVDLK
R111V: 8.29%
G102F: -7.75%
N114S: 8.5%
R45P: -9.46%
E129P: 60.8%
L91Q: -4.3%
S63H: 23.3%
S42P: -4.77%
D159E: 12.1%
R24C: 14.1%
V161A: 2.71%
P146Y: -24.5%
S171H: 45.5%
I162Y: -24.4%

For quick reference, copied from above (set 2):
T37A: 0.264 natural log
L31Y: 0.177 natural log
V35I: 0.223 natural log
E44H: 0.175 natural log
R53P: -1.11 natural log
T37I: 0.212 natural log
Q41E: 0.207 natural log
Q41G: 0.0214 natural log
